# Published values collected from several papers.
# Each line is one published result; not all experiments were run side by side. Several values in a cell are separate wells, animals, samples, runs or records.
# FN1 mature: FN1 mature (Bos taurus, UniProt P07589)
# Chain of UniProt P07589 (whole entry, looked up): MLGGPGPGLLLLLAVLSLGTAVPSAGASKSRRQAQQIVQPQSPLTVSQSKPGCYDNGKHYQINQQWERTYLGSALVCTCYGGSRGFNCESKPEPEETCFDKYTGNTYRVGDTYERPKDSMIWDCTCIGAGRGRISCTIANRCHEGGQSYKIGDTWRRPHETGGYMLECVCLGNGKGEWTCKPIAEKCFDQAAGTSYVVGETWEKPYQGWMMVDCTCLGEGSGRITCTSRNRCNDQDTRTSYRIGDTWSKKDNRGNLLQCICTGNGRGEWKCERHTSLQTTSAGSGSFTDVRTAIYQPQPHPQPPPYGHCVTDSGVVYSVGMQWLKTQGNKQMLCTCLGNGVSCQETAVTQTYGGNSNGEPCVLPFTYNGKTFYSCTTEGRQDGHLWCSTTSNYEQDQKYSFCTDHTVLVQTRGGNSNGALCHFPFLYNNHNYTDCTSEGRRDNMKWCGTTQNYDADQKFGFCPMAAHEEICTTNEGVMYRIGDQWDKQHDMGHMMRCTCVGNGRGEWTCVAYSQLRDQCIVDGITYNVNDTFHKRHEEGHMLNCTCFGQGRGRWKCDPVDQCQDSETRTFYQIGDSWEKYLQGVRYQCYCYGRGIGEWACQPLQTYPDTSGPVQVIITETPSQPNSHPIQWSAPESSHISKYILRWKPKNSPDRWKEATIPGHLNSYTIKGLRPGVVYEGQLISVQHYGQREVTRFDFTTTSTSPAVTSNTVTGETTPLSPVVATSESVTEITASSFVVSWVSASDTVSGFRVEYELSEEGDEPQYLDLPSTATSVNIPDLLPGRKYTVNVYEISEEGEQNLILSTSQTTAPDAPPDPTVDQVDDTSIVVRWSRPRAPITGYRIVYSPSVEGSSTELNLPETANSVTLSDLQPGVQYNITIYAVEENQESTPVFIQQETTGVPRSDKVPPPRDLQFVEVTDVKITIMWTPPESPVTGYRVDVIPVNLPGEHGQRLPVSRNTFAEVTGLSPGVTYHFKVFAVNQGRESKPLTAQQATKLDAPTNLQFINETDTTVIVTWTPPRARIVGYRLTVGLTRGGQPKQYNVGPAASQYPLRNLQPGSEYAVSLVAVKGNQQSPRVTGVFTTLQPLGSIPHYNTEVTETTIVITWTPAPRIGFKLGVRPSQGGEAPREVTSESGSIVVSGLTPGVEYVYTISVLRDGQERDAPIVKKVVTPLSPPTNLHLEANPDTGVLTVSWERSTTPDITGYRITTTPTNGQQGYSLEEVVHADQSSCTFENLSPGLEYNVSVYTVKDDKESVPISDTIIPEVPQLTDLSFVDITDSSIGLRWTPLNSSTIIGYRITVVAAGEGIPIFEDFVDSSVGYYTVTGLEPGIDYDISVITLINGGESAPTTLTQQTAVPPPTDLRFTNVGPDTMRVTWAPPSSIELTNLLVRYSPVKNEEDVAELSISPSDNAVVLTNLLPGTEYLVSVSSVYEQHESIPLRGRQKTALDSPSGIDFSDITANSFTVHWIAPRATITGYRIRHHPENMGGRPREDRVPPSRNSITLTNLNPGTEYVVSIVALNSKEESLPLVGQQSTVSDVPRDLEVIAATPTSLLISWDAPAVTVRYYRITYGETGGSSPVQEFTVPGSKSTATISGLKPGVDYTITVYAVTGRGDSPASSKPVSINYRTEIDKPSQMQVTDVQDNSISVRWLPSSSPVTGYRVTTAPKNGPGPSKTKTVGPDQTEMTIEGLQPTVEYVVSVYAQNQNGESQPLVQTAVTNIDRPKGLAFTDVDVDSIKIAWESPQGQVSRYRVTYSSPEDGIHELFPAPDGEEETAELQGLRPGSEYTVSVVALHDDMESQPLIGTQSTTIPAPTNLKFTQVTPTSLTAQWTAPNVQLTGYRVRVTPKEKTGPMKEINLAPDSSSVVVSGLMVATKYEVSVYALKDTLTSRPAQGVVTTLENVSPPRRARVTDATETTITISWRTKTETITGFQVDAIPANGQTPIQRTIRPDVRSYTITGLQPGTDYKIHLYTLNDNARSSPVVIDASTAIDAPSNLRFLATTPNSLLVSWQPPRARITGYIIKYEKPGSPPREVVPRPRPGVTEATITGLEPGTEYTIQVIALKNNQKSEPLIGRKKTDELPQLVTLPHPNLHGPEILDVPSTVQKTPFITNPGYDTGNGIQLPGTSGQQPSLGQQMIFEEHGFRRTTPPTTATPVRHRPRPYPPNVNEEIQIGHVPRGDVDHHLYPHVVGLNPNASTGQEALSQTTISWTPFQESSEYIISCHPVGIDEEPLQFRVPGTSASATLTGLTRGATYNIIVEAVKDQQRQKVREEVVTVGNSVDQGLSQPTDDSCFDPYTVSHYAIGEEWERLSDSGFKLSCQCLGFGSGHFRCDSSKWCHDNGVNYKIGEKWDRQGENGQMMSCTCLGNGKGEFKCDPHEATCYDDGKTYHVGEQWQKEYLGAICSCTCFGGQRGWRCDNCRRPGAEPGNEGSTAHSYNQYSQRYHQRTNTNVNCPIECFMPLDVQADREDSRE
# B1: bbk32 108-205 (Borrelia burgdorferi, UniProt O50835); chain LKEQSETRKEKIQKQQDEYKGMTQGSLNSLSGESGELEEPIESNEIDLTIDSDLRPKSSLQGIAGSNSISYTDEIEEEDYDQYYLDEYDEEDEEEIRL
# B2: Lqq V toxin, rhodamine on Lys60 (Leiurus quinquestriatus quinquestriatus, UniProt P01481); ends and bridges not checked; also: 125I-labelled, site not given here; rhodamine on Lys60; chain LKDGYIVDDKNCTFFCGRNAYCNDECKKKGGESGYCQWASPYGNACWCYKLPDRVSIKEK(6‑carboxytetramethylrhodamine acetamide)GRCN
# B3: bbk32 21-354 (Borrelia burgdorferi, UniProt O50835); chain DLFIRYEMKEESPGLFDKGNSILETSEESIKKPMNKKGKGKIARKKGKSKVSRKEPYIHSLKRDSANKSNFLQKNVILEEESLKTELLKEQSETRKEKIQKQQDEYKGMTQGSLNSLSGESGELEEPIESNEIDLTIDSDLRPKSSLQGIAGSNSISYTDEIEEEDYDQYYLDEYDEEDEEEIRLSNRYQSYLEGVKYNVDSAIQTITKIYNTYTLFSTKLTQMYSTRLDNFAKAKAKEEAAKFTKEDLEKNFKTLLNYIQVSVKTAANFVYINDTHAKRKLENIEAEIKTLIAKIKEQSNLYEAYKAIVTSILLMRDSLKEVQGIIDKNGVWY
# Chain of UniProt P04775 (whole entry, looked up): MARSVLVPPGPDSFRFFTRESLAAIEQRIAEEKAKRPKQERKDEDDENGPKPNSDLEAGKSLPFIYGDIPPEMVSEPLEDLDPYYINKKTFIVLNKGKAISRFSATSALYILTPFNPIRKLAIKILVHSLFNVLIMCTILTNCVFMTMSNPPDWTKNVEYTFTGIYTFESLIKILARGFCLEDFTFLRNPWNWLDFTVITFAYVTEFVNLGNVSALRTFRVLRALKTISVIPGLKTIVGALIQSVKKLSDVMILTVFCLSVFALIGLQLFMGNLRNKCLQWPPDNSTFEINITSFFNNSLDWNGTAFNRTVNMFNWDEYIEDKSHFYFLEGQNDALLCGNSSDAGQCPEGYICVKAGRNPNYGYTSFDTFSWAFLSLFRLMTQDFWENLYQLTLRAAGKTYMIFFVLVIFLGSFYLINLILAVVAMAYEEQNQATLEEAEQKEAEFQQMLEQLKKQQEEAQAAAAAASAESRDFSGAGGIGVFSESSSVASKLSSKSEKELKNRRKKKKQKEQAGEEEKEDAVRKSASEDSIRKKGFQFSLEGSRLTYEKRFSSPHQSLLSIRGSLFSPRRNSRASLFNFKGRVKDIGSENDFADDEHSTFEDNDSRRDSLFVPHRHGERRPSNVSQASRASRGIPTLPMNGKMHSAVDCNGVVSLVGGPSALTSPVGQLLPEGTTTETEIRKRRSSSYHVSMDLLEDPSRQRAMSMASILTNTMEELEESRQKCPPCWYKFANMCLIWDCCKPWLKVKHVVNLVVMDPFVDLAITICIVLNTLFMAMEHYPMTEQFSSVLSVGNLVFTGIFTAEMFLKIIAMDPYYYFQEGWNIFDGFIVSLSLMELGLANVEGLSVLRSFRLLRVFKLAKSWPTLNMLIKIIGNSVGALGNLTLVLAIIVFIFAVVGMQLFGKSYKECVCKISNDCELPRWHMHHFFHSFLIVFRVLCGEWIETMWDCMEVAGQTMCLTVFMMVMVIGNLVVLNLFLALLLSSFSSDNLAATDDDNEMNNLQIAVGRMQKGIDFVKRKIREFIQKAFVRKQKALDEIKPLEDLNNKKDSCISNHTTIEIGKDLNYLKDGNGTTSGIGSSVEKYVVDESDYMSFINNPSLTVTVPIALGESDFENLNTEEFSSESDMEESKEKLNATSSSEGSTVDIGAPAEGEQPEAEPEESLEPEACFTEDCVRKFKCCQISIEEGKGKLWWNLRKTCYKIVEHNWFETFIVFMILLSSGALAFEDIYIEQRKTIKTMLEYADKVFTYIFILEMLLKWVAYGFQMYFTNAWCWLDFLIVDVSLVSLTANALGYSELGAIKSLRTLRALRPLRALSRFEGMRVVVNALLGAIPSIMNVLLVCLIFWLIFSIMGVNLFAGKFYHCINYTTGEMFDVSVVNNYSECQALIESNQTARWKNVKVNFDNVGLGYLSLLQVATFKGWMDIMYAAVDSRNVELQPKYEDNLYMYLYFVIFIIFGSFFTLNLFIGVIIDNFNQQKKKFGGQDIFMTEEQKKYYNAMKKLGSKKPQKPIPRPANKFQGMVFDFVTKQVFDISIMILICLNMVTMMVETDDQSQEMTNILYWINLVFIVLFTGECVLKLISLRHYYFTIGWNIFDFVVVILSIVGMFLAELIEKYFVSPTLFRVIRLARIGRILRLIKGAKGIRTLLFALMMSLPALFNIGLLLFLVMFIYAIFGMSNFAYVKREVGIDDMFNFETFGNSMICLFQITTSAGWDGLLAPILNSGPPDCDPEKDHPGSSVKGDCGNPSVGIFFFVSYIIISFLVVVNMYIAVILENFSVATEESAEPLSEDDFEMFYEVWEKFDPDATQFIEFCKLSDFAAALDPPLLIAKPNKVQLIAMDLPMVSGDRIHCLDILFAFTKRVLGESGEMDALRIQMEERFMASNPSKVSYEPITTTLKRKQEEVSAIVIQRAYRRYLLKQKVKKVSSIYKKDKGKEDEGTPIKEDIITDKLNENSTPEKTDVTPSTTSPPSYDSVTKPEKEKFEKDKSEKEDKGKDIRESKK
Substance,tested on,test,test system,setting,how to read,measurement,value
Nc1nc(Nc2ccccc2)sc1C(=O)c1ccccc1Cl,MERS-CoV spike VSV pseudovirus,pseudovirus entry,,10 µM,,inhibition,51%
O=c1ccn([C@@H]2O[C@](F)(CO)[C@@H](O)[C@H]2O)c(=O)[nH]1,Mammarenavirus lassaense,viral replication,"HeLa, clade IV NJ-2015",,,EC50,2090 nM
COc1cc2ncnc(Nc3cccc(Cl)c3)c2cc1OC,Monkeypox virus,viral infection,replication-deficient,11.11 µM,baseline: untreated,infection,1.92% and 1.79% and 1.81%
COc1ncc(-c2cn([C@@H]3O[C@](F)(CO[P@@](=O)(N[C@@H](C)C(=O)OC(C)C)Oc4ccccc4)[C@@H](O)[C@H]3O)cn2)c(OC)n1,Zaire ebolavirus,"viral replication, reporter virus",Huh-7,72 h,,IC50,> 100000 nM
B1 (bbk32 108-205),FN1 mature,ELISA,,,,Kd,14.6 nM
COc1nc(N)ncc1-c1cn([C@@H]2O[C@](F)(CO)[C@@H](O)[C@H]2O)cn1,Zaire ebolavirus,"viral replication, reporter virus",Huh-7,72 h,,IC50,> 100000 nM
B2,"Scn2a whole channel (Rattus norvegicus, UniProt P04775)",fluorescence decrease after washing,"peptide, neurons",,,dissociation half-time,65 min
B3 (bbk32 21-354),FN1 mature,ELISA,,,,Kd,16.2 nM

# For quick reference, copied from above:
Substance,tested on,test,test system,setting,how to read,measurement,value
COc1nc(N)ncc1-c1cn([C@@H]2O[C@](F)(CO)[C@@H](O)[C@H]2O)cn1,Zaire ebolavirus,"viral replication, reporter virus",Huh-7,72 h,,IC50,> 100000 nM
